Published values gathered from unrelated publications.
Lines come from different studies, so protocols differ. ± gives the spread as reported.

COc1ccc(NC(=O)CSc2nc3c(oc4ccccc43)c(=O)n2Cc2ccco2)cc1Cl
IC50 (LDR; cell viability, MTS; 4 days): > 50 µM

C=C(F)C(=O)Nc1cnn2ccc(-c3ccc(C4CCCCC4)cc3)nc12
IC50 (NCI-H226 (NF2-deficient); cell growth, inhibitor; 120 h): 0.261 µM

CC1=CC[C@]2(C(=O)O[C@H]3OC[C@@H](O)[C@@H](O)[C@@H]3OS(=O)(=O)O)CC[C@]3(C)C(CCC4[C@@]5(C)CC[C@H](O)C(C)(C)C5CC[C@]43C)C2[C@H]1C (stereo partly drawn)
IC50 (WISH; cell growth or viability, MTT): 46.8 µM

C#CCN(CC(=O)O[C@H]1[C@H](C)O[C@@H](O[C@H]2[C@H](N(C)C)[C@@H](O)[C@H](O[C@H]3[C@@H](CC=O)C[C@@H](C)[C@@H](O[C@H]4CC[C@H](N(C)C)[C@@H](C)O4)/C=C/C=C/C[C@@H](C)OC(=O)C[C@@H](O)[C@@H]3OC)O[C@@H]2C)C[C@@]1(C)O)Cc1ccc(C(F)(F)F)cc1
IC50 (HGC-27; cell growth or viability, CCK-8; 72 h): 1.2 µM

CCCC(CCC)C(=O)[O][Pt]([NH2])([NH2])([Cl])([Cl])[O]C(=O)C(C)c1ccc(CC(C)C)cc1 (stereo not drawn)
IC50 (PSN1 3D spheroids): 0.93 ± 0.46 µM

Cn1cc(-c2cc(N3CCCCS3(=O)=O)ccc2N[C@H]2CC[C@](C)(O)CC2)c2cc[nH]c2c1=O
IC50 (Light II cells; GLI reporter gene, inhibitor; Hedgehog pathway): 0.00134 ± 0.00048 µM

C[C@]12CC/C(=N\O)C=C1CCC1C2CC[C@]2(C)/C(=C/c3ccccn3)CCC12 (stereo partly drawn)
IC50 (G-361; cell growth or viability, resazurin; 72 h): 45.3 µM

Cc1ccc(/C=N/N=C(\S)Nc2cccc(S(=O)(=O)N(C)C)c2)o1
IC50 (LDR; cell viability, MTS; 4 days): 21.5 µM

CCCCCCCCCCCCCCCCC1CC(=O)NCCCN(C)CCCCN(C)CCCN1C (stereo not drawn)
IC50 (SK-MEL; cell growth or viability, neutral red; 48 h): 1.9 µg/mL

COC(=O)[C@H]1[C@H]2C[C@H]3O[C@@]4(CCN3C[C@H]2C[C@@H](OC(=O)c2cc(OC)c(OC)c(OC)c2)[C@@H]1OC)C(=O)Nc1cc(OC)c(-c2ccc(F)cc2)cc14
IC50 (CAPAN-1; cell growth or viability, crystal violet; 72 h): 28.9 µM

C[N+]1(C)CC[NH2+][Pt-2]1([OH])([OH])([Cl])[Cl]
IC50 (CH1; cell growth or viability, MTT; 96 h): 3.3 µM

CC(C)Oc1ccc(S(=O)(=O)c2ccc(Oc3ccc(C(=O)C(Cl)Cl)cc3[N+](=O)[O-])cc2)cc1
IC50 (NCI-H1299; cell growth or viability, MTT; 72 h): 0.33 to 0.88 µM

C#CCN(CC(=O)O[C@H]1[C@H](C)O[C@@H](O[C@H]2[C@H](N(C)C)[C@@H](O)[C@H](O[C@H]3[C@@H](CC=O)C[C@@H](C)[C@@H](O[C@H]4CC[C@H](N(C)C)[C@@H](C)O4)/C=C/C=C/C[C@@H](C)OC(=O)C[C@@H](O)[C@@H]3OC)O[C@@H]2C)C[C@@]1(C)O)C(=O)c1ccc(C(C)(C)C)cc1
IC50 (HGC-27; cell growth or viability, CCK-8; 72 h): 0.53 µM

CCc1nnc(NC(=O)c2cccc(C(=O)Nc3nnc(CC)s3)n2)s1
IC50 (LDR; cell viability, MTS; 4 days): 3.6 µM

Cl.[Cl][Ru-]1[S+]=C(N2CCCC2)N[N+]1=Cc1ccc(N(c2ccccc2)c2ccccc2)cc1.c1ccccc1
IC50 (IMR-90; cell viability, MTT; 24 h): 39 ± 4.7 µM

CCC(C(=O)O)C1CCC(C)C(C(C)C(O)C(C)C(=O)C(CC)C2OC3(C=CC(NCc4cn(CCCCSC(C)=O)nn4)C4(CCC(C)(C5CCC(O)(CC)C(C)O5)O4)O3)C(C)CC2C)O1 (stereo not drawn)
IC50 (HMLER CD24high/CD44low; cell viability, CellTiter-Blue; 72 h): 2.42 ± 0.2 µM

CCCCC(CC)CNC(=N)NC(=N)NCCCCCCCCNC(=N)NC(=N)NCC(CC)CCCC (stereo not drawn)
IC50 (NCI-H1299; cell growth or viability, SRB; 72 h): 0.8 µM

COc1cccc2c1C(=O)c1c(O)c3c(c(O)c1C2=O)CC(O)(C(=O)CO)CC3OC1CC(NC(=O)C[C@H](N)C(=O)O)C(O)C(C)O1 (stereo partly drawn)
IC50 (NCI-H1299; cell growth or viability, MTT; 48 h): > 50 µg/mL

For quick reference, copied from above:
CCCCCCCCCCCCCCCCC1CC(=O)NCCCN(C)CCCCN(C)CCCN1C (stereo not drawn)
IC50 (SK-MEL; cell growth or viability, neutral red; 48 h): 1.9 µg/mL

COC(=O)[C@H]1[C@H]2C[C@H]3O[C@@]4(CCN3C[C@H]2C[C@@H](OC(=O)c2cc(OC)c(OC)c(OC)c2)[C@@H]1OC)C(=O)Nc1cc(OC)c(-c2ccc(F)cc2)cc14
IC50 (CAPAN-1; cell growth or viability, crystal violet; 72 h): 28.9 µM
